Measured values from different studies.
Numbered parts are unrelated; each lists some results of a single study.

Sample 1 — method: protein-binding microarray; form: double-stranded DNA, one strand shown; medium: in vitro; concentration: 250 nM; notes: 60-bp whole probe; together with: salmon DNA 0.4 mg/ml; reference: random background probes; reading: higher = stronger binding; shared flanks, not repeated: GCCTAGCAC … GTCTTGATTCGCTTGACGCTGCTG
Target: Interferon regulatory factor 7, full length, phosphomimetic (IRF7, Homo sapiens, UniProt Q92985, residues 1-503, S101K/S471D/S472D/S475D/S476D/S477D/S483D/S484D/S487D)
Residues (chain): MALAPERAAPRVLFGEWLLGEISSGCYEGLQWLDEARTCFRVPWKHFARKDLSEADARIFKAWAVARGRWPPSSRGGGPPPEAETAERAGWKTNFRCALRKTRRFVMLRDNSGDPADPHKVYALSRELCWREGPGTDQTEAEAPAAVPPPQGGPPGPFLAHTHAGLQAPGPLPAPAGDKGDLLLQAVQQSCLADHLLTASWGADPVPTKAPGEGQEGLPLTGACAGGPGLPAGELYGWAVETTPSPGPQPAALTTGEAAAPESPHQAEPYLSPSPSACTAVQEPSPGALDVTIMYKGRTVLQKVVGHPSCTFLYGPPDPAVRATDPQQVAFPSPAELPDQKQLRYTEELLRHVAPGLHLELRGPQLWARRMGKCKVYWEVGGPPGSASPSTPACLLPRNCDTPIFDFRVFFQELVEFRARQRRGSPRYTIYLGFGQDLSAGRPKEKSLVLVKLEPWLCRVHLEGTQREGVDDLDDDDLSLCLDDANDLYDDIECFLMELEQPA
Strand	log fluorescence
TTAGGACTGCTACTGCGTTAGTGCTAG	-0.722 z-score
GACGGTTCCCTTTTCCCGACGTGCTAG	3.68 z-score
GACGGTTTAGACACTGGGGACGTGCTA	-0.0133 z-score
GACGGACTGCGTATCGGGACGTGCTAG	-0.78 z-score
GACGAACTGGGGTTTCGAGCCGTGCTA	0.322 z-score
GACGGTATCGGGTATCGGAACGTGCTA	0.689 z-score
CTCCCTTTCAGTTTTCCTCTGTGCTAG	1.02 z-score
TTACTTCCCAATAATCTTTTCGTGCTA	2.13 z-score

Sample 2 — method: aptamer microarray, sandwich; form: DNA with 2'F-ANA; medium: in vitro; concentration: 200 nM; together with: Cy3 exosite-II aptamer, 400 nM; reading: higher = stronger binding; strand: GGTTGGTGTGGTTGG
Target: Prothrombin, mature alpha-thrombin (F2, Homo sapiens, UniProt P00734)
Notes: whole 15-mer aptamer, many near background
Modification	mean fluorescence intensity [a.u.]
2'F-ANA at 1 3 4 9 11 12 13 14	70
2'F-ANA at 4 5 6 14	46.5
2'F-ANA at 2 3 6 9 14	363
2'F-ANA at 1 3 4 9	216
2'F-ANA at 1 3 4 7 9 12 14 15	86.1
2'F-ANA at 3 4 6 7 8 10 13 15	209
2'F-ANA at 1 2 5 6 7 11 13 14	48.2
2'F-ANA at 1 4 5 6 8 13 14	45.7
2'F-ANA at 4 5 6 7 9 10 11 13 14 15	48.6
2'F-ANA at 2 4 5 7 10 11 12 13 14	51.3
2'F-ANA at 5 6 8 9 12 13 15	139

Sample 3 — method: RNA Bind-n-Seq; form: RNA; medium: in vitro; concentration: not given; reference: input RNA pool; reading: higher = stronger binding
Target: RING finger protein unkempt homolog, zinc fingers 1-6, GST-SBP tag (UNK, Homo sapiens, UniProt Q9C0B0, residues 30-357)
Sequence of UniProt Q9C0B0 (30-357, looked up): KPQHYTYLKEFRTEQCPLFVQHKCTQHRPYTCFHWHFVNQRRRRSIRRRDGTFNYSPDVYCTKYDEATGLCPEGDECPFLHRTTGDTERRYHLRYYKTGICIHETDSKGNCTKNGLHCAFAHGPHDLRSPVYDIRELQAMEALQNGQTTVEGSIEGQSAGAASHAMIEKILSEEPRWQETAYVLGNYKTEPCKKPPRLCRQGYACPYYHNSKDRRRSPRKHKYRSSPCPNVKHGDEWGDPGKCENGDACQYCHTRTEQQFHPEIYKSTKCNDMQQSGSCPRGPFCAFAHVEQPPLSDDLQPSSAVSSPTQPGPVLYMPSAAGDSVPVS
Notes: RNA with constant flanks, human and mouse sites, ends assumed
Shared flanks, not repeated: GGGAGUUCUACAGUCCGACGAUC … CAACAGAGGAUUGAGCAUCA
Strand	bound/input enrichment [ratio]
CUGCCUACCUCAGAGCAUAAAUGCAUACAUUCUAGAGAAGAUGAAGACUUAAUUGAAAAUUUAGCCCAAGAUGAAACAUCUAGGCUGGACCUUGGAUUUGAGGAGUGGGAUGUAGCUGGC	0.306
CCUACACCAGAACAAGAGGAAAAAGCACUAUUGUCAUCACCUGAAGGAGAAGAAAAAGUAUACAAUGCAACAUCAGAUGCUGACCUGAAAGAACAUAUGGUUGGAAUCAUAUUCAGCAGG	0.144
CCAACAGGCUCUGCCUCCAAGUGCCAAAAACUCCUAGUAAAGUUUGCGCCUCGCCCGCCGUCCACACCCCAGCGGCCCUGACGCUGUCCCCUCCGCGACCCUCGCCUCUGGAAAAAGUGA	0.513
GAGGAGUUAGAUACCUUAUUAAGCAAUUUUUGUGAACUCUCCACUCCUGGAGGUGUAGAGAAUAGUUAUGGGAAAAUAAACAUCUUACUUCAAACUUAUAUCAGCCGAGGAGAAAUGGAC	2.65
CUUUUUGGCCAUCUUUUAAAACUUUUUUUUUUUUUUUUGAUCUAUAAAAUAGACAAGAGAUAGUUCUACAAUGUCCAAGUCAUUCCAGCAGUCAUCUCUCGGUAGGGAUUCACAGGGUCA	1.32
GCUGAACUUGAUACACUGAAUGAAGACUCAUACAAAGACAGCACCCUCAUCAUGCAGUUGCUUAGAGACAACCUAACACUUUGGACAUCAGACAGUGCAGGAGAAGAAUGUGAUGCGGCA	0.272
CGCAUCAAGAUCCAGCUAUGGGACACAGCAGGACAAGAACGAUUCAGAAAGAGCAUGGUUCAGCACUACUACAGAAAUGUACAUGCUGUUGUCUUCGUGUAUGAUAUGACCAACAUGGCU	0.11
GCAUGGAGCAUGAAUUCUUACUAAUAGAGACUGUAGUUUUUUUCUUGUCUUUGGUAAAUAUAUAAAAGACCUUAAUUUUUCUUUUUUAAUGAAUGGAGAAAACAUGAGAAAACCAGAUGG	1.02
AUUGAAGAAUUGCAAGAGGCUUUACGGAAGAAAGAAGAAGAAAUGAAGCAAAUGGAAGAACGCUAUAAAAAAUACUUAGAGAAGGCCAAGAGUGUUAUCCGUACAUUAGACCCUAAACAG	0.951

Further values, each from its own experiment
Substance	target	test	test system	conditions	how to read	measurement	value
PhoQ, residues 284 288 289 292 302 303 SSYNSA	PhoP, residues 12 14 15 18 19 GHCSL (Escherichia coli, UniProt P23836)	Sort-seq, refers to: YFP reporter	E. coli	PhoQ-PhoP variant library, together with: 10 µM Mg2+	reference: high Mg2+ state, higher = stronger signaling	fold induction	12

Repeated from above (sample 2):
Modification	mean fluorescence intensity [a.u.]
2'F-ANA at 1 4 5 6 8 13 14	45.7
2'F-ANA at 2 4 5 7 10 11 12 13 14	51.3
2'F-ANA at 4 5 6 14	46.5
